Published values gathered from unrelated publications.
Parts stem from different laboratories: compare values within a part only.

Set 1 — method: RNA Bind-n-Seq; molecule type: RNA; sample: in vitro; concentration: 200 nM; notes: whole 134-nt RNA, ends assumed; together with: 150 mM KCl; relative to: input library; reading: higher = stronger binding
Target: Fragile X messenger ribonucleoprotein 1, C-terminal low-complexity region (Fmr1, Mus musculus, UniProt P35922)
`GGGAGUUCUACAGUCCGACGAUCAGUCCUGUGCUACACAUCGUAUGUACCGAAUCGGGGUUUUUGGUUUUUGGGUUUUUGGAAAGUAUUAUGUUACGCCGUUCGGAUCUGCACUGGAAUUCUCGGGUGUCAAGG` has a log2 enrichment of -0.292.
With `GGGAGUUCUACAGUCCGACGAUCGUCCUGUGCUACACAUCGUAUGUACCGAAUCGGUUUUUGGGGUUUUUGGGGUUUUUGGGAAAGUAUUAUGUUACGCCGUUCGGAUCUGCAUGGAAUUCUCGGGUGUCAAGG` the log2 enrichment was -0.145.
`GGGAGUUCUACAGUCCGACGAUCCCUCAAGUCCUGUGCUACACAUCGUAUGUACCGAAUCGGUUUUUGGUGGUGGAAAGUAUUAUGUUACGCCGUUCGGAUCUGCACUUCCAGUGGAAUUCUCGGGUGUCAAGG` gave a log2 enrichment of 0.255.
`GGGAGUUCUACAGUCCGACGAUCCAAGUCCUGUGCUACACAUCGUAUGUACCGAAUCGGUUUUUUUGGUGGAAAAAGGAAAGUAUUAUGUUACGCCGUUCGGAUCUGCACUUCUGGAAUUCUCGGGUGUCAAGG` gave a log2 enrichment of -0.562.
With `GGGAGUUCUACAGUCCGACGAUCAGAAAGCCCAGGAGGAACCACCUGCCAAGCUGCUGGAUGACCUUUUCCGAAAGACCAAGGCAGCUCCCUGCAUCUAUUGGCUCCCACUGAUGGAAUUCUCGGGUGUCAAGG` the log2 enrichment was -0.244.
With `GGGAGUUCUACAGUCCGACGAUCUCAAGUCCUGUGCUACACAUCGUAUGUACCGAAUCGGUGGUUUUUGGUUUUUGGAAAGUAUUAUGUUACGCCGUUCGGAUCUGCACUUCCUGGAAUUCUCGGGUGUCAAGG` the log2 enrichment was -0.435.
With `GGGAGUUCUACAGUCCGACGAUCUGGCCCUGGUGGCAUGCGGGGAGGAAGAGGUGGCCUCAUGGAUCGUGGUGGUCCCGGUGGAAUGUUCAGAGGUGGCCGUGGUGGCGACAGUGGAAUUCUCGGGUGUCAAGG` the log2 enrichment was 0.0177.
`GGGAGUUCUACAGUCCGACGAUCUCAAGUCCUGUGCUACACAUCGUAUGUACCGAAUCGGGAAGGGGAAGGGAAGGGAAAGUAUUAUGUUACGCCGUUCGGAUCUGCACUUCCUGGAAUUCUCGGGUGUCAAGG` gave a log2 enrichment of 0.866.
`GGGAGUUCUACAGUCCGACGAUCCCUCAAGUCCUGUGCUACACAUCGUAUGUACCGAAUCGGGAGGAGGGAGGGGAAAGUAUUAUGUUACGCCGUUCGGAUCUGCACUUCCAGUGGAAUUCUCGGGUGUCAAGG` has a log2 enrichment of 1.17.
`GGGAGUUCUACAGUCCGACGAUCCACAGACAACACGCACCCACACAGACACAGAGGGAAGGGGUUGGGAUGGGGACAGGGUGCAGAGCAGGGCGGGGUAGGACCCCAGCCCCUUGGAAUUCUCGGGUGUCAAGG` has a log2 enrichment of 1.18.

Set 2 — method: competition protein-binding microarray; molecule type: double-stranded DNA, one strand shown; sample: in vitro; concentration: 2 µM; together with: Pho4 competitor, 0.05 µM; reading: higher = stronger binding
Target: Centromere-binding protein 1, full length, His-tagged (CBF1, Saccharomyces cerevisiae, UniProt P17106, residues 1-351)
Sequence of UniProt P17106 (whole entry, looked up): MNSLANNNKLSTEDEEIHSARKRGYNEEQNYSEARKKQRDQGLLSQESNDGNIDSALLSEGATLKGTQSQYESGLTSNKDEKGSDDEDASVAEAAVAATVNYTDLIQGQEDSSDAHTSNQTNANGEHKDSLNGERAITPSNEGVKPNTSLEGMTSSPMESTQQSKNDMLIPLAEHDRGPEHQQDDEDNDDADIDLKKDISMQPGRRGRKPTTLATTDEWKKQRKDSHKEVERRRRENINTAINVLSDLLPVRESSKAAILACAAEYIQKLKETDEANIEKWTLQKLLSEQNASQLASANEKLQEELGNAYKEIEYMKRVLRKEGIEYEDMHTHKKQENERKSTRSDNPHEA
Notes: whole 60-bp probe, lowest competitor level
The fluorescence intensity of `TGCGCAACAACTTGTCCTGTGGGTGTATGTCTAGAAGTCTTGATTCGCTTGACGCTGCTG` is reported as 76.7 a.u.
`CCGTCTTAGCACCCGCACACGCAGACGCAGCGCTCAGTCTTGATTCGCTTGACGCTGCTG` has a fluorescence intensity of 65.8 a.u.
With `CTTGCCAGAGGCATCTGCTAAGGCGTCCCACAAATCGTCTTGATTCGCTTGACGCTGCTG` the fluorescence intensity was 68 a.u.
`TATTGACAGCATTCGATCGTGCAATGGGAAATAACGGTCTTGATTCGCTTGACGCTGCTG` gave a fluorescence intensity of 75.8 a.u.
The fluorescence intensity of `TAGAAATTCCTCCTTCACGTTCTGTTGAAGGGAGGAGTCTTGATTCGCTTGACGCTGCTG` is reported as 82.6 a.u.
With `CGGGGTTAAGTTTGTCCAGTGGGTGGCTTGCAGCAGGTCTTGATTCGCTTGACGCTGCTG` the fluorescence intensity was 74.1 a.u.
`CTCGCGTTAGAGCAGTACGTGGCCGAGCTAAACTCGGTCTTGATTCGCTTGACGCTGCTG` gave a fluorescence intensity of 69.6 a.u.
`TTCCATTTACACCGTCACGCTTTCCAAACCATCCAGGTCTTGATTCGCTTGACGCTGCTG` has a fluorescence intensity of 253 a.u.
`GGTACAGACACAAAGCTCGTGCAAAGTGCTGTCCTAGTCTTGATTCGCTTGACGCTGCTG` has a fluorescence intensity of 89.1 a.u.
The fluorescence intensity of `CATAATAACAGTTGCGTTGTGACGCTATTGTTAACAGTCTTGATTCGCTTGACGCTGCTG` is reported as 75 a.u.
For `TATATGTTTCACTGGCACGTTTTGTTTTGTCCCCTTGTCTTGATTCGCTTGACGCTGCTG`, the fluorescence intensity was 136 a.u.
With `CATACCCAACCTTGTCACCACACTTAAGATATTTGTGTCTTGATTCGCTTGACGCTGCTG` the fluorescence intensity was 85.8 a.u.
With `TGCGCAACAACTTAGCACGTGTTTTTATGTCTAGAAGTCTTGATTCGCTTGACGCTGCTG` the fluorescence intensity was 2480 a.u.
For `CGGGCCTCAGGCAGCCACGAGGTAGACGGGCTCAGGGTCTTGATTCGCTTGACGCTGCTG`, the fluorescence intensity was 71.1 a.u.
`GTCGTTATGGGAACAGACGTGATGGCTATCCTAGAAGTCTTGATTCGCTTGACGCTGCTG` gave a fluorescence intensity of 67.9 a.u.
`CTACGGTTCCTGCCGCTCGTGGGTACCCCAAGCAAAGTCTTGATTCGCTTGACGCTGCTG` gave a fluorescence intensity of 49.2 a.u.
`AGGGTGGGTTTGATTTTCATCTTGATGCAACCTCTCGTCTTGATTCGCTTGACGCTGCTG` gave a fluorescence intensity of 64.2 a.u.
`GTCTTGTCTCATTGCATCGTGGGTGTCCCCACTTCAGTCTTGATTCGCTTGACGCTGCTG` gave a fluorescence intensity of 90.1 a.u.
The fluorescence intensity of `TGCGCAACAACTTGCATGGTGGGTGTATGTCTAGAAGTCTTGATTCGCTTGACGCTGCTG` is reported as 66.6 a.u.
`TTCCAGTCCTTCCATCACGCATTCCATATAATAACCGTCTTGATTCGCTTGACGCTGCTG` has a fluorescence intensity of 118 a.u.

Set 3 — method: protein-binding microarray; molecule type: double-stranded DNA, one strand shown; sample: in vitro; concentration: not given; reading: higher = stronger binding
Target: Myc proto-oncogene protein, bHLH-zipper, MAX partner unstated (MYC, Homo sapiens, UniProt P01106, residues 368-449)
Sequence of UniProt P01106 (368-449, looked up): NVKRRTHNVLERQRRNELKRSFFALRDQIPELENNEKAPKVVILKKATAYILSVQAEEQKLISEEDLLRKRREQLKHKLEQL
Notes: k-mer, scored over probes, only values ≥0.25
The E-score of `ACAACACG` is reported as 0.348.
With `CAGGCATG` the E-score was 0.349.
The E-score of `CAGACACG` is reported as 0.384.
`CATGGAGC` gave an E-score of 0.335.
With `CATGTAGC` the E-score was 0.253.
`AAAACGTG` gave an E-score of 0.427.
For `GCCATGCA`, the E-score was 0.412.
`ATCTCGTG` gave an E-score of 0.356.
`ACGCATGA` gave an E-score of 0.366.
For `ACGTGACT`, the E-score was 0.351.
`ACGTGAAC` gave an E-score of 0.27.
For `ATGCACAC`, the E-score was 0.373.
`GGCACCAC` gave an E-score of 0.259.
`GACACGAC` has an E-score of 0.314.
`CACGGGGA` has an E-score of 0.281.
The E-score of `ACCGCGCG` is reported as 0.348.
For `ACATGCGC`, the E-score was 0.439.

Set 4 — method: RNA Bind-n-Seq; molecule type: RNA; sample: in vitro; concentration: 365 nM; relative to: no-protein control; reading: higher = stronger binding
Target: RNA binding protein fox-1 homolog 2, RRM domain, GST-SBP tag (RBFOX2, Homo sapiens, UniProt O43251-10, residues 100-194)
Notes: natural RNA segment, single round, ends assumed
Target sequence (chain): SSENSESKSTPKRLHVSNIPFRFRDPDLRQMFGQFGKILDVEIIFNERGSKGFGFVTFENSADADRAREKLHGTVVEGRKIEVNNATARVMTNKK
For `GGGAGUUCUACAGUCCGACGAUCUCAGCUUUUGAUUUCCAUGGCCCCACCAUUUAUGUGCAAGAUUUGCAAUGGUUGUCAGCUUCCUCUGAAGACCGAGCUUGACGCCUCCAUGCCAGCUGCCGUUGGAGACGUGGAAUUCUCGGGUGCCAA`, “RBNS enrichment (R)” read 0.471.
`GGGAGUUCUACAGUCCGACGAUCACCCAAAACCAAGCAUUUUGGAAUGAGUCUCCUUUAGUUUCAGAGUGUGGAUUGUAUAACCCAUAUACUCUUCGAUGUACUUGUUUGGUUUGGUAUUAAUUUGACUGUGCUGGAAUUCUCGGGUGCCAA` — result for “RBNS enrichment (R)”: 0.4.
`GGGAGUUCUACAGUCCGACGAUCACCAAAGGUUAAGUGAGGUCCCCUUGAUUGAGGACUUCACCCCUUGAUUAAAGCAACUUCUGCUUCAUGCUUCCUGUGUGGUGUUGAGAGUGGGACUUGGGCCAUUAAGCUGGAAUUCUCGGGUGCCAA`: “RBNS enrichment (R)” 0.277.
`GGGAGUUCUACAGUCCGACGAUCGUGGCGAAUGGCAGCACAGCGCGGUGGCUGGGUCUGCACACUGGCCUCUGCAGCCAGAUUUCUAUAUUGGGAGUUUUUUAAAAAGACAUUUCAUAGCCAACAAGAAUCAGUGGAAUUCUCGGGUGCCAA`: “RBNS enrichment (R)” 0.411.
For `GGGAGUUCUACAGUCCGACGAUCGCACUUUAAGUAUGUGCAGUUUGUUGUAUGUCAAUUAUACCUCAAUAAAUCUGUAAUAAAAAACUAAUUAAACCUUGCAUUAAAAUAAUAUCACAGUAUCAGUGGACUAAUGGAAUUCUCGGGUGCCAA`, “RBNS enrichment (R)” read 0.514.
Under “RBNS enrichment (R)”, `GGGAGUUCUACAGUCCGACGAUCCCGGCCUUACCUCGUCUUCAUCCGUGGUGAGCAGCCUUCGUCAGUCUAGUUGUGUUGAAGCCAAGUGCAGUUGUGGAUGUUGCUGGGGUAAUAAAGGCAAGCGGGCUCCAUGGAAUUCUCGGGUGCCAA` is recorded as 0.387.
Under “RBNS enrichment (R)”, `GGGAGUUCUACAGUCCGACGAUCCCGCCUUUGGCAUUGUGUGUACAUCUGCAGUUUUGCAUGGUGGGUUGUUAAUAUUUCAAAUGUGUGGUUUAUGAAUACGUCUGUAUAAUCGGCUUCUGGAGUGAAACAGCUGGAAUUCUCGGGUGCCAA` is recorded as 0.753.
Under “RBNS enrichment (R)”, `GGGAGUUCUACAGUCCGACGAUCGUAUAUUUUGGGCACACAGUGAAAAGUGAGCCAUAGAUGGAGCUUCUUGCUGAUCACAUUGACACUGUCUGUGUUUGAUUUGCUGAGCUCUUGGAUGUUGGGAGUGUAGCUGGAAUUCUCGGGUGCCAA` is recorded as 0.402.
`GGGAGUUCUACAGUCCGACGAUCUUAUUUGUUCACAAAUUCAAGAAGCUUAAAGGUCGUAAAUAUCAGUAUCUCAUAAGGUAAACCAAUAGCUGAUUAUGUGGAGCCAAGUUACUUCUUUUCUUUUUGCAUUAUGGAAUUCUCGGGUGCCAA`: “RBNS enrichment (R)” 0.898.

Some of these lines once more (set 2):
`GGTACAGACACAAAGCTCGTGCAAAGTGCTGTCCTAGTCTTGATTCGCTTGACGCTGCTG` has a fluorescence intensity of 89.1 a.u.
The fluorescence intensity of `TGCGCAACAACTTGCATGGTGGGTGTATGTCTAGAAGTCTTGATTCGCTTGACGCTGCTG` is reported as 66.6 a.u.
`CTCGCGTTAGAGCAGTACGTGGCCGAGCTAAACTCGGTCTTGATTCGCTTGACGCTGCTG` gave a fluorescence intensity of 69.6 a.u.
With `CTTGCCAGAGGCATCTGCTAAGGCGTCCCACAAATCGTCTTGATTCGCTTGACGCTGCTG` the fluorescence intensity was 68 a.u.
The fluorescence intensity of `TAGAAATTCCTCCTTCACGTTCTGTTGAAGGGAGGAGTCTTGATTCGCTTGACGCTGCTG` is reported as 82.6 a.u.
With `TGCGCAACAACTTAGCACGTGTTTTTATGTCTAGAAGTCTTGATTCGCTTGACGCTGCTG` the fluorescence intensity was 2480 a.u.
`TATTGACAGCATTCGATCGTGCAATGGGAAATAACGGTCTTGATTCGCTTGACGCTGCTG` gave a fluorescence intensity of 75.8 a.u.
With `CGGGGTTAAGTTTGTCCAGTGGGTGGCTTGCAGCAGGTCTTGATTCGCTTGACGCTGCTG` the fluorescence intensity was 74.1 a.u.
